{"data": "Experimental data of several laboratories", "target": "Leukocyte tyrosine kinase receptor (LTK, Homo sapiens, UniProt P29376)", "note": "Compare with care: the assays were run in different laboratories. Several values in a cell are separate wells, animals, samples, runs or records."}
{"SMILES": "CN1CCN(Cc2ccc(-c3ccc(CO[C@H]4CCC[C@@H]4NC(=O)c4cc(-c5cnn(C)c5)cnc4N)cc3)cc2)CC1", "observed": "enzyme activity", "action": "inhibitor", "tested at": "0.1 µM", "quantity": "inhibition", "value": "-1%"}
{"SMILES": "CNC(=O)C1CCN(c2cc(C)c(F)cc2NC(=O)c2ccc(-c3cc(O)ccc3C)c(C)c2)CC1", "observed": "binding", "technique": "competition with immobilised ligand", "tested at": "1 µM", "quantity": "remaining binding", "value": "100%"}
{"SMILES": "Nc1ncc2c(n1)-c1c([nH]c3ccc(C4=CCOCC4)cc13)CCC2", "observed": "binding", "technique": "competition with immobilised ligand", "tested at": "1 µM", "quantity": "remaining binding", "value": "91%"}
{"SMILES": "Cc1ccc(-c2c(/C=C(\\C#N)C(=O)NC(C)C)n(CCCO)c3ncnc(N)c23)cc1", "observed": "cell-free assay", "technique": "competition with immobilised ligand", "tested at": "1 µM", "quantity": "remaining binding", "value": "95%"}
{"SMILES": "O=C(Cc1ccc(OCc2ccccc2)cc1)NC1(C(=O)O)CCN(C(=O)c2ccc(-c3cccc(Cl)c3)cc2)CC1", "observed": "enzyme activity", "action": "inhibitor", "tested at": "10 µM", "quantity": "activity vs control", "value": "89%"}
{"SMILES": "Nc1ncc(-c2cc(-c3cnn(CC(F)(F)F)c3)ncc2F)nc1C(=O)NC1CNCC(F)C1 (stereo not shown)", "observed": "enzyme activity", "tested at": "1 µM", "relative to": "DMSO control", "quantity": "remaining activity", "value": "90.3%"}
{"SMILES": "Cc1cccc(O[C@H]2CCC[C@@H](C(C)CNCc3ccncc3)C2)c1 (relative stereo)", "observed": "cell-free assay", "tested at": "1 µM", "quantity": "inhibition", "value": "-1%"}
{"SMILES": "C=CC(=O)Nc1cccc(-c2cnc3[nH]cc(C(=O)NC(C)(C)C)c3n2)c1", "observed": "kinase activity", "tested at": "0.1 µM", "quantity": "inhibition", "value": "3% and 4%"}
{"SMILES": "NC(=O)C[C@H]1CCc2sc3ncnc(O[C@H]4CC[C@H](N5CCOCC5)CC4)c3c21", "observed": "enzyme activity", "action": "inhibitor", "tested at": "10 µM", "quantity": "inhibition", "value": "0%"}
{"SMILES": "C=CC(=O)N1Cc2nc(-c3cc(-c4cc(Cl)cnc4Cl)c(F)cc3F)n(-c3ccncn3)c2C1", "observed": "cell-free assay", "tested at": "1 µM", "quantity": "inhibition", "value": "6.1%"}
{"SMILES": "C[C@H]1CN(C(=O)c2cn(-c3ccnc(N)n3)c3cc(C#CC4(O)CCCCC4)ccc23)CCN1", "observed": "enzyme activity", "action": "inhibitor", "technique": "FRET", "tested at": "1 µM", "quantity": "inhibition", "value": "9%"}
{"SMILES": "CN1CC[C@@H](COc2cnc(C#N)cc2-c2ccn3nc(NC(=O)C4CC4)cc3c2)C1", "observed": "enzyme activity", "action": "inhibitor", "tested at": "1 µM", "quantity": "inhibition", "value": "4%"}
{"SMILES": "CNC(=O)C[C@H](Cc1ccc(C#N)cc1)NC(=O)c1cc(-c2ccc(CN[C@H](C)c3ccc(C)cc3)o2)ccc1Cl", "observed": "enzyme activity", "action": "inhibitor", "tested at": "1 µM", "quantity": "activity vs control", "value": "89%"}
{"note": "Repeated from above:"}
{"SMILES": "Cc1ccc(-c2c(/C=C(\\C#N)C(=O)NC(C)C)n(CCCO)c3ncnc(N)c23)cc1", "observed": "cell-free assay", "technique": "competition with immobilised ligand", "tested at": "1 µM", "quantity": "remaining binding", "value": "95%"}
{"SMILES": "C=CC(=O)N1Cc2nc(-c3cc(-c4cc(Cl)cnc4Cl)c(F)cc3F)n(-c3ccncn3)c2C1", "observed": "cell-free assay", "tested at": "1 µM", "quantity": "inhibition", "value": "6.1%"}
